Published values of several laboratories.
Lines come from different studies, so protocols differ. Numbers after ± are the reported error. ≈ marks a conversion by molar mass, not a printed value.
UniProt Q15858, sequence (whole entry, looked up): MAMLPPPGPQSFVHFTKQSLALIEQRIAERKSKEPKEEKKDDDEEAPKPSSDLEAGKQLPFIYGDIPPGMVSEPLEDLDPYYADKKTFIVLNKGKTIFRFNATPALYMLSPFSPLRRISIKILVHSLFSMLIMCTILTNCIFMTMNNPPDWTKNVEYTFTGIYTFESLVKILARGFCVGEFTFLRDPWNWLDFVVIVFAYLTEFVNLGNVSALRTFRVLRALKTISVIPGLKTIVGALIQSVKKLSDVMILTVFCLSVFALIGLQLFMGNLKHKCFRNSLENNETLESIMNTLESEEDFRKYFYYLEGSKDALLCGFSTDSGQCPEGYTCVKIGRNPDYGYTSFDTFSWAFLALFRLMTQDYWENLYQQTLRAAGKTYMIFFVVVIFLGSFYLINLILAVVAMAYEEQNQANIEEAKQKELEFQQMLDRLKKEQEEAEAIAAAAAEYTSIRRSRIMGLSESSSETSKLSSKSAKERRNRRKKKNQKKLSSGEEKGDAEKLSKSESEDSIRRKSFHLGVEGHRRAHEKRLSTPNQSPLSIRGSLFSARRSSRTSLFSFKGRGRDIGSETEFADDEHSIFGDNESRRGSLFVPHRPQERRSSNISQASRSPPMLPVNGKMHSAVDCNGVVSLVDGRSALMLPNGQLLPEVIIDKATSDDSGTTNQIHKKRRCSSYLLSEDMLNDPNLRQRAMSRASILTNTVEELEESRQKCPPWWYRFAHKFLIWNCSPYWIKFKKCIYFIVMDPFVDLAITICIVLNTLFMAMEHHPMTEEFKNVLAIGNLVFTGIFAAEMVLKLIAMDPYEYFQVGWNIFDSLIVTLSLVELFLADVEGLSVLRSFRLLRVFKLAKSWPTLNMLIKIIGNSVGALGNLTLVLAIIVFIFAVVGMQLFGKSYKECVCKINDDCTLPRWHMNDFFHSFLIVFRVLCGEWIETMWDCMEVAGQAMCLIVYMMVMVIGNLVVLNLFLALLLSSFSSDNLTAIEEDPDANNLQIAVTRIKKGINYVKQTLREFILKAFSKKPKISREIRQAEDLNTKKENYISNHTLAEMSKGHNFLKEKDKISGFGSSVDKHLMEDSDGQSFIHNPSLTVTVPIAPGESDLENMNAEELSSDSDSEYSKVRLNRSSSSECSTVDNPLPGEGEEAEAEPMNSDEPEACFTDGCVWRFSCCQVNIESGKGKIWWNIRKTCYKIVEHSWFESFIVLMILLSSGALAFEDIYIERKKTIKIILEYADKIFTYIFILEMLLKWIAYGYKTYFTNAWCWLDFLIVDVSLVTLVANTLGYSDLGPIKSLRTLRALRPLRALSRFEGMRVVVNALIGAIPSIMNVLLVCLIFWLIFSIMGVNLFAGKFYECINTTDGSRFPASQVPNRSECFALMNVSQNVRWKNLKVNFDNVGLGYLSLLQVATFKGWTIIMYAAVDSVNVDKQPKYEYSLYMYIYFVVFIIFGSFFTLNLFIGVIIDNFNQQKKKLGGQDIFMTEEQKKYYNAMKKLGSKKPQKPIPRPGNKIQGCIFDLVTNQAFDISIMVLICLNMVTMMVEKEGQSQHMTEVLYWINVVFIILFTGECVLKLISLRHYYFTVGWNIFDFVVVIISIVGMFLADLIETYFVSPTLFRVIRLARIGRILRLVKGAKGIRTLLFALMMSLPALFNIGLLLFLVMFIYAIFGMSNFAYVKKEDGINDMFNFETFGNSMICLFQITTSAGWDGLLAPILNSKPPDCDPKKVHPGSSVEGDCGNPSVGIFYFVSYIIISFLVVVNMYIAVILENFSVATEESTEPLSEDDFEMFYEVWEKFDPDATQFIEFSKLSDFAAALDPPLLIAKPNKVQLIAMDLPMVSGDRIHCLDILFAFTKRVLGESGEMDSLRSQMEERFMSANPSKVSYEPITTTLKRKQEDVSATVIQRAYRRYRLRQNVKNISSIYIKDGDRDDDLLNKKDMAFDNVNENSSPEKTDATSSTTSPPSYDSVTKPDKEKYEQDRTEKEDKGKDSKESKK
UniProt Q0P543, sequence (whole entry, looked up): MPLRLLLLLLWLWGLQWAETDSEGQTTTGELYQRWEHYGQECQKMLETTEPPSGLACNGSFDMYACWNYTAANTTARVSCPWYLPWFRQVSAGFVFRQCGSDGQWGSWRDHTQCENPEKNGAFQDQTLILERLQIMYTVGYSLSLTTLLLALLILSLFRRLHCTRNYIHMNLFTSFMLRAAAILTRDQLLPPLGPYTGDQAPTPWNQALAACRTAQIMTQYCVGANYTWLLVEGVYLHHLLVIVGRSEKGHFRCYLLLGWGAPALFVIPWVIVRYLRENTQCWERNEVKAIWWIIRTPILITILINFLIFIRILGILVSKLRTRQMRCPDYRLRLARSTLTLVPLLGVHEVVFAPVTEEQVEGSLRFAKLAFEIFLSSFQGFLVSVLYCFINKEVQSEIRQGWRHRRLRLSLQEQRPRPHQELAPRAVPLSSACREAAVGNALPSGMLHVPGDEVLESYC

Compound | tested on | test | test system | conditions | how to read | endpoint | value
CC(C)C[C@H](NC(=O)[C@H](CC(=O)O)NC(=O)[C@H](CCC(=O)O)NC(=O)[C@H](C)NC(=O)[C@H](CCC(=O)O)NC(=O)[C@H](Cc1c[nH]cn1)NC(=O)[C@H](CC(N)=O)NC(=O)[C@H](Cc1ccccc1)NC(=O)[C@H](Cc1ccccc1)NC(=O)[C@H](CC(=O)O)NC(=O)[C@H](CC(C)C)NC(=O)[C@H](Cc1ccccc1)NC(=O)[C@@H](N)[C@@H](C)O)C(=O)N[C@@H](Cc1ccccc1)C(=O)N[C@@H](CSCc1ccc(S(=O)(=O)F)cc1)C(=O)O | HEK293T-ACE2 | pseudovirus infection | – | concentration not given | – | inhibition | 100%
CC(C)n1ccn2cc(C(=O)NCc3ccc(F)cc3F)c(=O)c(O)c2c1=O | human immunodeficiency virus 1 | single-round vector infection | integrase G118R | – | – | EC50 | 26.7 ± 3.2 nM
CC(C)C[C@@H]1NC(=O)[C@H](CCCNC(=N)N)NC(=O)[C@@H]2CCCN2C(=O)[C@@H]2CSSC[C@H](NC(=O)CNC(=O)[C@@H]3CCCN3C(=O)[C@H](CCCCN)NC(=O)[C@H](CC(=O)O)NC(=O)[C@@H](NC(=O)CN)C(C)C)C(=O)N[C@@H](CCCNC(=N)N)C(=O)N[C@@H](Cc3ccc(O)cc3)C(=O)N[C@@H](CC(C)C)C(=O)N[C@@H](Cc3ccccc3)C(=O)NCC(=O)NCC(=O)N[C@H]3CSSC[C@H](NC(=O)CNC1=O)C(=O)N[C@@H](CCCCN)C(=O)NCC(=O)N[C@@H](CCCCN)C(=O)NCC(=O)N[C@@H](Cc1c[nH]cn1)C(=O)N[C@@H](CC(=O)O)C(=O)N[C@@H](Cc1ccc(O)cc1)C(=O)N[C@H](C(=O)N[C@@H](C)C(=O)N[C@@H](Cc1c[nH]c4ccccc14)C(=O)N[C@@H](CC(=O)O)C(=O)NCC(=O)N[C@H](C(=O)N[C@@H](Cc1ccccc1)C(=O)N[C@@H](CO)C(=O)N[C@@H](CC(=O)O)C(=O)O)[C@@H](C)O)CSSC[C@H](NC(=O)[C@H](CC(=O)O)NC(=O)[C@H](CC(=O)O)NC(=O)[C@H](CC(=O)O)NC(=O)[C@H](CO)NC(=O)[C@H](CCCCN)NC3=O)C(=O)N2 | Sodium channel protein type 9 subunit alpha (SCN9A, Homo sapiens, UniProt Q15858) | manual patch clamp | HEK293 | 1 µM | – | steady-state inactivation V0.5 | -76.5 ± 0.4 mV
C=C(C)C[C@H](OC)[C@H](O)C(=O)N[C@@H](OC)[C@@H]1CC(=O)C(C)(C)[C@@H](C[C@H](O)[C@@H](C)[C@H]2Cc3c(C)c(O)cc(O)c3C(=O)O2)O1 | IMR-90 | cell growth or viability | – | – | – | IC50 | 57 nM
CCCCCCCCCCCCCCCC(=O)N[C@@H](CCC(=O)NCCOCCOCCC(=O)NCCOCCOCCC(=O)NCCCC[C@H](NC(=O)[C@H](CC(=O)O)NC(=O)[C@H](CC(C)C)NC(=O)[C@H](Cc1ccc(O)cc1)NC(=O)[C@H](CCCCN)NC(=O)[C@H](CO)NC(=O)[C@H](Cc1ccc(O)cc1)NC(=O)[C@H](CC(=O)O)NC(=O)[C@H](CO)NC(=O)[C@@H](NC(=O)[C@H](Cc1ccccc1)NC(=O)[C@@H](NC(=O)CNC(=O)[C@H](CCC(N)=O)NC(=O)[C@@H](CO)NC(=O)[C@@H](N)Cc1c[nH]cn1)[C@@H](C)O)[C@@H](C)O)C(=O)N[C@@H](CCCNC(=N)N)C(=O)N[C@@H](CCCNC(=N)N)C(=O)N[C@@H](C)C(=O)N[C@@H](CCC(N)=O)C(=O)N[C@@H](CC(=O)O)C(=O)N[C@@H](Cc1ccccc1)C(=O)N[C@H](C(=O)N[C@@H](CCC(N)=O)C(=O)N[C@@H](Cc1c[nH]c2ccccc12)C(=O)N[C@@H](CC(C)C)C(=O)N[C@@H](CC(C)C)C(=O)N[C@@H](CC(N)=O)C(=O)N[C@H](C(=O)NCC(=O)NCC(=O)N1CCC[C@H]1C(=O)N[C@@H](CO)C(=O)N[C@@H](CO)C(=O)NCC(=O)N[C@@H](C)C(=O)N1CCC[C@H]1C(=O)N1CCC[C@H]1C(=O)N1CCC[C@H]1C(=O)N[C@@H](CO)C(N)=O)[C@@H](C)O)C(C)C)C(=O)O | – | – | Sprague-Dawley rat, female | subcutaneous, 100 µg/kg once daily, 14 days | – | urea | 3.96 ± 0.68 mmol/L
Cc1cc(/C=C/C#N)cc(C)c1-n1cnc2cnc(Nc3ccc(C#N)cc3)nc21 | HIV-1 | viral replication, single-round infection | RT mutant K101P | – | – | EC50 | 4.9 ± 2.2 nM
O=C(CSc1c[nH]c2ccccc12)NCc1ccc(Cl)c(Cl)c1 | HEK293T | Gaussia luciferase expression | – | up to 10 µM, 24 h, without RdRp | – | reporter expression | no effect
Nc1ncnc2c1ncn2C1CCC(OC(C(=O)O)P(=O)(O)O)C1 (racemic) | HIV-1 reverse transcriptase M184V | enzyme activity, inhibitor | – | with: poly(rU)·oligo(dA), [3H]dATP | relative to: mutant over wild type | fold resistance | 1.7 fold
O=C(NCc1ccc(F)cc1F)c1cn2c(c(O)c1=O)C(=O)N(CCCCCO)CC2 | human immunodeficiency virus 1 | single-round vector infection | integrase N155H | – | – | EC50 | 66.9 ± 14 nM
CC[C@H](C)[C@H](NC(=O)[C@H](CCCN)NC(=O)[C@H](CC(=O)O)NC(=O)[C@H](CC(C)C)NC(=O)C(C)(CC(C)C)NC(=O)[C@@H](NC(=O)[C@H](CO)NC(=O)[C@H](Cc1ccc(O)cc1)NC(=O)[C@H](CC(=O)O)NC(=O)[C@H](CO)NC(=O)[C@@H](NC(=O)[C@H](Cc1ccccc1)NC(=O)[C@@H](NC(=O)CNC(=O)[C@H](CCC(=O)O)NC(=O)C(C)(C)NC(=O)[C@@H](N)Cc1ccc(O)cc1)[C@@H](C)O)[C@@H](C)CC)[C@@H](C)CC)C(=O)N[C@@H](Cc1c[nH]cn1)C(=O)N[C@@H](CCC(N)=O)C(=O)NC(C)(C)C(=O)N[C@@H](CC(=O)O)C(=O)N[C@@H](Cc1ccccc1)C(=O)N[C@H](C(=O)N[C@@H](CCC(=O)O)C(=O)N[C@@H](Cc1ccc(O)cc1)C(=O)N[C@@H](CCCCNC(=O)COCCOCCNC(=O)COCCOCCNC(=O)CC[C@H](NC(=O)CCCCCCCCCCCCCCCCCCC(=O)O)C(=O)O)C(=O)N[C@@H](CC(C)C)C(=O)N[C@@H](CCC(=O)O)C(=O)NCC(=O)NCC(=O)N1CCC[C@H]1C(=O)N[C@@H](CO)C(=O)N[C@@H](CO)C(=O)NCC(=O)N[C@@H](C)C(=O)N1CCC[C@H]1C(=O)N1CCC[C@H]1C(=O)N1CCC[C@H]1C(=O)N[C@@H](CO)C(N)=O)C(C)C (stereo partly shown) | Gastric inhibitory polypeptide receptor (Mus musculus, UniProt Q0P543) | cAMP accumulation, agonist | HEK293 | – | relative to: human GIP, fold less potent | relative potency | ~30 fold
CCCCCCCCCCCCCCCC(=O)N[C@@H](CCC(=O)NCCCC[C@H](NC(=O)[C@H](CC(=O)O)NC(=O)[C@H](CO)NC(=O)[C@@H](NC(=O)[C@H](Cc1ccccc1)NC(=O)[C@@H](NC(=O)CNC(=O)[C@H](CCC(N)=O)NC(=O)[C@H](C)NC(=O)[C@@H](Cc1ccc(O)cc1)NC(C)=O)[C@@H](C)O)[C@@H](C)O)C(=O)N[C@@H](CO)C(=O)N[C@@H](CCCCN)C(=O)N[C@@H](Cc1ccc(O)cc1)C(=O)N[C@@H](CC(C)C)C(=O)N[C@@H](CC(=O)O)C(=O)N[C@@H](CCC(=O)O)C(=O)N[C@@H](CCCNC(=N)N)C(=O)N[C@@H](C)C(=O)N[C@@H](C)C(=O)N[C@@H](CCC(N)=O)C(=O)N[C@@H](CC(=O)O)C(=O)N[C@@H](Cc1ccccc1)C(=O)N[C@H](C(=O)N[C@@H](CCC(N)=O)C(=O)N[C@@H](Cc1c[nH]c2ccccc12)C(=O)N[C@@H](CC(C)C)C(=O)N[C@@H](CC(C)C)C(=O)N[C@@H](CCC(=O)O)C(=O)NCC(=O)NCC(=O)N1CCC[C@H]1C(=O)N[C@@H](CO)C(=O)N[C@@H](CO)C(=O)NCC(=O)N[C@@H](C)C(=O)N1CCC[C@H]1C(=O)N1CCC[C@H]1C(=O)N1CCC[C@H]1C(=O)N[C@@H](CO)C(N)=O)C(C)C)C(=O)O | – | multiple ascending dose | human | 25 to 150 µg once daily, across doses | – | median tmax at steady state | 8 to 10 h
Cc1cc(/C=C/C#N)cc(C)c1Nc1nc(Nc2ccc(C#N)cc2)ncc1N | HIV-1 | viral replication, single-round infection | RT mutant V106A/F227L/L234I | – | – | EC50 | 0.4 ± 0.1 nM
CC[C@H](C)[C@H](NC(=O)[C@H](CCCCN)NC(=O)[C@H](CCCCN)NC(=O)[C@H](CC(C)C)NC(=O)[C@H](Cc1c[nH]c2ccccc12)NC(=O)CN)C(=O)NCC(=O)N[C@@H](CCCCN)C(=O)N[C@@H](CCCCN)C(=O)N[C@H](C(=O)N[C@@H](CCC(=O)O)C(=O)N[C@@H](CCCNC(=N)N)C(=O)N[C@H](C(=O)NCC(=O)N[C@@H](CCC(N)=O)C(=O)N[C@@H](Cc1c[nH]cn1)C(=O)N[C@H](C(=O)N[C@@H](CCCNC(=N)N)C(=O)N[C@@H](CC(=O)O)C(=O)N[C@@H](C)C(=O)N[C@H](C(=O)N[C@H](C(=O)N[C@@H](CCC(N)=O)C(=O)N[C@H](C(=O)N[C@H](C(=O)NCC(=O)N[C@H](C(=O)N[C@@H](C)C(=O)N[C@@H](CCC(N)=O)C(=O)N[C@@H](CCC(N)=O)C(=O)N[C@@H](C)C(=O)N[C@@H](C)C(=O)N[C@@H](CC(N)=O)C(=O)N[C@H](C(=O)N[C@@H](C)C(=O)N[C@@H](C)C(=O)N[C@H](C(=O)N[C@@H](CC(C)C)C(=O)N[C@@H](CCCCN)C(N)=O)[C@@H](C)O)C(C)C)C(C)C)[C@@H](C)CC)[C@@H](C)O)[C@@H](C)CC)[C@@H](C)O)[C@@H](C)O)C(C)C)[C@@H](C)CC | Pseudomonas aeruginosa | broth microdilution | RKI 93/12, CAMHB with 10% mouse serum | – | – | MIC | 256 µg/mL (≈ 61 µM)

Some of these lines once more:
Compound | tested on | test | test system | conditions | how to read | endpoint | value
Cc1cc(/C=C/C#N)cc(C)c1-n1cnc2cnc(Nc3ccc(C#N)cc3)nc21 | HIV-1 | viral replication, single-round infection | RT mutant K101P | – | – | EC50 | 4.9 ± 2.2 nM
